Published values from different studies.
± marks the error that the study gave.
B1: Cacna1c 1647-1777 (Mus musculus, UniProt Q01815); sequence looked up; chain NALSLQAGLRTLHDIGPEIRRAISGDLTAEEELDKAMKEAVSAASEDDIFRRAGGLFGNHVTYYQSDSRGNFPQTFATQRPLHINKTGNNQADTESPSHEKLVDSTFTPSSYSSTGSNANINNANNTALGR
B2: CFH 1108-1231 R1215Q (Homo sapiens, UniProt P08603); sequence looked up; chain KCGPPPPIDNGDITSFPLSVYAPASSVEYQCQNLYQLEGNKRITCRNGQWSEPPKCLHPCVISREIMENYNIALRWTAKQKLYSRTGESVEFVCKRGYRLSSRSHTLQTTCWDGKLEYPTCAKR
B3: PUX6 269-435 (Arabidopsis thaliana, UniProt F4IXN6); chain VTYTVTIWRNGFTVDDDPFKSLDDPENAAFLEYMPEDNKFGVPTTTRSTSCSSQTHQELQTLAGSESTSTEPPLTTTQPPSMSSLVVDPAAPTTSIQLILADSTRIVTQFNTHHTIRDIRCFIDTSRPDGSKDYQLLIMGSPPTPLSDFDQTIEKAGIANSVLVQKF
Chain of UniProt P26039 (whole entry, looked up): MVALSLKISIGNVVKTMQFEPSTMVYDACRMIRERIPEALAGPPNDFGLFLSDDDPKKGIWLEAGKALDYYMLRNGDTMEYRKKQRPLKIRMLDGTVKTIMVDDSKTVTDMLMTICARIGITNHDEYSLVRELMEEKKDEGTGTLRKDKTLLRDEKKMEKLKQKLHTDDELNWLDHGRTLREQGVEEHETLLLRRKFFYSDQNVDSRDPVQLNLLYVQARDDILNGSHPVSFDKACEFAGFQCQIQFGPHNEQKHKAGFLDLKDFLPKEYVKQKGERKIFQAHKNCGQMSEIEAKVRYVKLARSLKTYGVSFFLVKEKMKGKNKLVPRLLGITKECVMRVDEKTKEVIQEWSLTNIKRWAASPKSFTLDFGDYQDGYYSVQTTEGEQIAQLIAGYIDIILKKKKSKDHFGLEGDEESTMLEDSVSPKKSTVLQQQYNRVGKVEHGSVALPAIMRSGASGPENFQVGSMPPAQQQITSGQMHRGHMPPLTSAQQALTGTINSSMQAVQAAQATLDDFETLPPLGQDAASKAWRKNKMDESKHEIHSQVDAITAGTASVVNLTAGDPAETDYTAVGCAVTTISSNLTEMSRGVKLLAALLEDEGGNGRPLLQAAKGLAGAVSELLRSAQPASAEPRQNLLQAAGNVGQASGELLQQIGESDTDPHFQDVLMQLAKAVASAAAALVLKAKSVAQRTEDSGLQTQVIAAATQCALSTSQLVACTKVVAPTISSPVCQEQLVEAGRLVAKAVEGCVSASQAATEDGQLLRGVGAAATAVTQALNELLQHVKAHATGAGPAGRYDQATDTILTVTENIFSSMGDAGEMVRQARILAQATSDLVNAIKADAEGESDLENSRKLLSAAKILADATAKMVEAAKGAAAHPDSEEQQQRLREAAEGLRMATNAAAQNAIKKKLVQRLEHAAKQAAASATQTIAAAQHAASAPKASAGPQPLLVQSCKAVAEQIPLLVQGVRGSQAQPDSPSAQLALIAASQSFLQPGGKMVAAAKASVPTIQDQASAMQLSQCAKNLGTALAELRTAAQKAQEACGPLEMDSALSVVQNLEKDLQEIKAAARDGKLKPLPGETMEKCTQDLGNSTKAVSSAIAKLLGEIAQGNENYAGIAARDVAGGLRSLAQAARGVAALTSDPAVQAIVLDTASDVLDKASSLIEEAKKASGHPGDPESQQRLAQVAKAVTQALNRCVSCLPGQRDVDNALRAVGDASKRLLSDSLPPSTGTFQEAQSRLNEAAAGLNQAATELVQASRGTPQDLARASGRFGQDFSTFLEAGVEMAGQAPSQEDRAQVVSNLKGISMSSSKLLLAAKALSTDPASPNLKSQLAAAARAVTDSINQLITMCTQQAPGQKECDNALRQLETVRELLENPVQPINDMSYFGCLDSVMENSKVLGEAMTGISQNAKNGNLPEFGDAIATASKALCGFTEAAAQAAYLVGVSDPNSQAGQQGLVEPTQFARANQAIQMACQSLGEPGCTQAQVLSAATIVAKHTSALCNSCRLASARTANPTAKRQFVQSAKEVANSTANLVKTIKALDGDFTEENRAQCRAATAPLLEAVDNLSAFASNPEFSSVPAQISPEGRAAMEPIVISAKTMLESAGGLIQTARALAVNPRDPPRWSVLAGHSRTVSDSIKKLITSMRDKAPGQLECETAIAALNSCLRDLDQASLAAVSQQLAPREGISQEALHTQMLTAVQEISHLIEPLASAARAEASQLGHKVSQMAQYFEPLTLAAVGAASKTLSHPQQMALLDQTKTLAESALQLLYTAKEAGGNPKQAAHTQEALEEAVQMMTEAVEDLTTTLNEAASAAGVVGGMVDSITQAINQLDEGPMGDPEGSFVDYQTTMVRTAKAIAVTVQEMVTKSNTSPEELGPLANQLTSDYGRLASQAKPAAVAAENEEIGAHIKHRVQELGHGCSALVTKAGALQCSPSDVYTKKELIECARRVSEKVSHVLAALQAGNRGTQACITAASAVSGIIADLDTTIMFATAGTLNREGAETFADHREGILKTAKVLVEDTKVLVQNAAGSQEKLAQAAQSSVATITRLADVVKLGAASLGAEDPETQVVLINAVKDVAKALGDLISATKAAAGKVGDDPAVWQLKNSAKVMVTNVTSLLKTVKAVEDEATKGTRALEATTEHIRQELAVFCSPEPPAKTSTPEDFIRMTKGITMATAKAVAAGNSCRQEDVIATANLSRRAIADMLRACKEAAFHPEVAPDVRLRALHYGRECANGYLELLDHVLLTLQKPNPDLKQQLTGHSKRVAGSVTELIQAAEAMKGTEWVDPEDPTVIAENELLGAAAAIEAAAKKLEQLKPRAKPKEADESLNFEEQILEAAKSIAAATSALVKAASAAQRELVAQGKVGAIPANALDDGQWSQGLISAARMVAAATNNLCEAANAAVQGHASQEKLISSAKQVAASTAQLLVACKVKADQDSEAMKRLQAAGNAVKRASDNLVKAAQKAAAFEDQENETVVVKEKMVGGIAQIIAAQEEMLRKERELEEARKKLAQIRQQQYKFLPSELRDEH
Chain of UniProt P01024 (whole entry, looked up): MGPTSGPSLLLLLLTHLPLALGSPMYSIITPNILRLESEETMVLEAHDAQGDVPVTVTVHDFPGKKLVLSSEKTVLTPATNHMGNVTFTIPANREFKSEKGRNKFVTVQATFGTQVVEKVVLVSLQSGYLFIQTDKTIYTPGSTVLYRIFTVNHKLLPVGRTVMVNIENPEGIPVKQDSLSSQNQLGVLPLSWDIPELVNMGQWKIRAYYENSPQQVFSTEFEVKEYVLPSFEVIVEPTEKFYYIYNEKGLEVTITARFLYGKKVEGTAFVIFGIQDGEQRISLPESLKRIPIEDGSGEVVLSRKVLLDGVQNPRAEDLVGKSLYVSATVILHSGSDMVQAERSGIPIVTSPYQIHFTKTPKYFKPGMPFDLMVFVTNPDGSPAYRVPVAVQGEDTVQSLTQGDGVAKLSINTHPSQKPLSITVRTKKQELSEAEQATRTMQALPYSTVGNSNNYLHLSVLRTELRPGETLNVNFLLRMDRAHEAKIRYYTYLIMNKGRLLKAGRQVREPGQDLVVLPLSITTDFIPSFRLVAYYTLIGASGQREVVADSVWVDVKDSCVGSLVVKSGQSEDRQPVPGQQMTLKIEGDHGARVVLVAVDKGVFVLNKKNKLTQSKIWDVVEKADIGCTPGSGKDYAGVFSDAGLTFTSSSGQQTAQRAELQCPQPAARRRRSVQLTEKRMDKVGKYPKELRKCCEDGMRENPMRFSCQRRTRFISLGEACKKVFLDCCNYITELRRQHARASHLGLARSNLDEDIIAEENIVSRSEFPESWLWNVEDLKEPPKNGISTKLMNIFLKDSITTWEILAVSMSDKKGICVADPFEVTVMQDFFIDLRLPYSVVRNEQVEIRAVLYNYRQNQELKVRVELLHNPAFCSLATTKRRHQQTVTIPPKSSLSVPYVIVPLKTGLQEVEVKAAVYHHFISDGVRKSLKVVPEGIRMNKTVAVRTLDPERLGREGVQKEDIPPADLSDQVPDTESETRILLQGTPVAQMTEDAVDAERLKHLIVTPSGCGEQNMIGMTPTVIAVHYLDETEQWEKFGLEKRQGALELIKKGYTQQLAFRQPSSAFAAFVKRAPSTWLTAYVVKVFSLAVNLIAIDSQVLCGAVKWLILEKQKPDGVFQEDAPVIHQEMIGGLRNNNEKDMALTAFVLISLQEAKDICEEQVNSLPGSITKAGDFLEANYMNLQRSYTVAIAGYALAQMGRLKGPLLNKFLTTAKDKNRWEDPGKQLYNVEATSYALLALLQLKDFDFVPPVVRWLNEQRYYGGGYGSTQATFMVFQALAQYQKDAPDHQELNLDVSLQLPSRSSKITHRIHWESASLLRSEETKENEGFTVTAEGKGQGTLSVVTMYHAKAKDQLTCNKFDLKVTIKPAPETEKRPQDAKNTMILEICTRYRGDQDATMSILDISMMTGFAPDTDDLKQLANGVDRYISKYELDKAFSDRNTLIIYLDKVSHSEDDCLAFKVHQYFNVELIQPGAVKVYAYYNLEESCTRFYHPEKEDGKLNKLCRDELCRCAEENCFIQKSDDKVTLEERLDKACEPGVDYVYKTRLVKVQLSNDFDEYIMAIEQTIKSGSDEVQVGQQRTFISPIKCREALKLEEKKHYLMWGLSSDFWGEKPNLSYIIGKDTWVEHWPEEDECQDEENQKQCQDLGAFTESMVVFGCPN
Chain of UniProt Q16236 (whole entry, looked up): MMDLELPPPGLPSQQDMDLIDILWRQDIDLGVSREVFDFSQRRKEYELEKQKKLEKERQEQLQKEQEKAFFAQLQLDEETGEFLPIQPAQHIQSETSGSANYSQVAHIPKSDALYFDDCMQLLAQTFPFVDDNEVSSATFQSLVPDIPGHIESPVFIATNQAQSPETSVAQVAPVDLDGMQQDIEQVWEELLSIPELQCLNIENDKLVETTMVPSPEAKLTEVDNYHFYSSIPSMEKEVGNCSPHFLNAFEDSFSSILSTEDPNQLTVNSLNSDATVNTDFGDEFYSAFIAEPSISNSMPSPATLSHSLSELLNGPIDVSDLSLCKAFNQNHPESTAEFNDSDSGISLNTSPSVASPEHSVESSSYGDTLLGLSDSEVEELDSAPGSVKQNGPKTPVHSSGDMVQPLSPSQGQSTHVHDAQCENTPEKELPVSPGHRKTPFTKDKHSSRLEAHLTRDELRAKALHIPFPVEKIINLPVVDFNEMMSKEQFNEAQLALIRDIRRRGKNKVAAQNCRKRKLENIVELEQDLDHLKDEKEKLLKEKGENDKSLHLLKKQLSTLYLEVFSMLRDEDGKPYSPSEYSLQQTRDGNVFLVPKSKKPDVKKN

| Molecule | tested on | assay | system | setting | how to read | quantity | result |
| --- | --- | --- | --- | --- | --- | --- | --- |
| SCN2A IQ region (Homo sapiens) (sequence not shown) | CALM1 (Homo sapiens, UniProt P0DP23) | fluorescence titration |  | pH 7.4, 22 °C, together with: calcium |  | Kd | 0.0198 µM |
| histone H3 peptide fragment, K14 lactyl-lysine | DPF2 270-391 (Homo sapiens, UniProt Q92785) | ITC |  |  |  | Kd | 0.6 µM |
| NPDALPETLV | human MAGI1-2/6 PDZ construct (MBP fusion) | automated holdup | peptide, crude extract | concentration not given, uncorrected, unit not given | relative to: biotin control resin, higher = stronger binding | binding intensity | 0.293 |
| SLLQWIAQV | Jurkat T cells expressing 1G4 TCR | NFAT-eGFP reporter, fluorescence microscopy | peptide | concentration not given, HLA-A*02:01 NY-ESO system |  | reporter activation | 25.1% |
| ptsH fragment (Escherichia coli) (sequence not shown) | ptsI fragment (Escherichia coli) | NMR titration |  | dilute buffer |  | Kd | 41.4 ± 3.8 µM |
| B1 (Cacna1c 1647-1777) | Jph2 1-440 S165D (Mus musculus, UniProt Q9ET78) | ITC |  |  |  | Kd | 5.87 µM |
| GSGAGHETIV | human MAGI1-2/6 PDZ construct (MBP fusion) | automated holdup | peptide, crude extract | concentration not given, uncorrected, unit not given | relative to: biotin control resin, higher = stronger binding | binding intensity | 0.252 |
| B2 (CFH 1108-1231 R1215Q) | C3 C3dg 955-1303 (Homo sapiens, UniProt P01024) | SPR |  |  |  | Kd | 8 ± 0.1 µM |
| SPTBN2 actin-binding domain H278R (sequence not shown) | ACTA1 F-actin (Oryctolagus cuniculus, UniProt P68135) | co-sedimentation |  |  |  | Kd | 6.7 µM |
| PCSK9 (Homo sapiens, UniProt Q8NBP7) | evolocumab IgG, PBS-stressed 14 d, Asn deamidation, heavy chain CDR2 Asn55 and Fc | SPR |  |  |  | Kd | 0.0013 µM |
| B3 (PUX6 269-435) | CDC48A 1-190 (Arabidopsis thaliana, UniProt P54609) | BLI |  | 25 °C |  | Kd | 0.0643 ± 0.0003 µM |
| CCT3 |  | co-immunoprecipitation | human RBC membrane | DMTMM crosslinker, unit not given, together with: Band 3 peptide 1-56 bait | relative to: negative control | co-IP enrichment | 0 |
| GLGQWVPQV | Jurkat T cells expressing 1G4 TCR | NFAT-eGFP reporter, flow cytometry | peptide | concentration not given, HLA-A*02:01 NY-ESO system |  | reporter activation | 0.22% |
| YSSDFLTPEFVKFSMDLTNTEI (NR4A2 30-51 (Homo sapiens, UniProt P43354); sequence looked up) | Ncoa1 260-369 (Mus musculus, UniProt P70365) | NMR titration | peptide |  |  | Kd | 10.5 ± 3.6 µM |
| KLLITIHDRKEFAKFEEERARAKWDTANNPLAKEATSTFTNITYRGT (ITGB3 742-788 Y747A (Homo sapiens, UniProt P05106); sequence looked up) | Tln1 309-405 (Mus musculus, UniProt P26039) | NMR titration |  |  |  | Kd | 1320 µM |
| CREBBP TAZ1 (Homo sapiens) | NFE2L2 99-160, fluorescein label (Homo sapiens, UniProt Q16236) | fluorescence titration |  |  |  | Kd | 3.7 ± 10.7 µM |

A few entries again:
| Molecule | tested on | assay | system | setting | how to read | quantity | result |
| --- | --- | --- | --- | --- | --- | --- | --- |
| GSGAGHETIV | human MAGI1-2/6 PDZ construct (MBP fusion) | automated holdup | peptide, crude extract | concentration not given, uncorrected, unit not given | relative to: biotin control resin, higher = stronger binding | binding intensity | 0.252 |
